Published values pooled from the literature.
Numbered parts are unrelated; each lists some results of a single study. Substitutions count along the parent as printed.

Block 1
Target: RNA binding protein fox-1 homolog 2, RRM domain, GST-SBP tag (RBFOX2, Homo sapiens, UniProt O43251-10, residues 100-194)
Technique: RNA Bind-n-Seq
Molecule type: RNA
Medium: in vitro
Tested at: 365 nM
Notes: natural RNA segment, single round, ends assumed
Relative to: no-protein control
Direction: higher = stronger binding
Quantity: RBNS enrichment (R)
All sequences stand within: GGGAGUUCUACAGUCCGACGAUC … UGGAAUUCUCGGGUGCCAA
Residues (chain): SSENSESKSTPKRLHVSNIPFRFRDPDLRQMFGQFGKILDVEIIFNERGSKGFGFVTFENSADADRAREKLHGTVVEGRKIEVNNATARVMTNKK
CAGCAGCCCUGGUUCCUUCCCAGUCAUACUUAUGGAAGAUGUGCCCUUCCAGAGGAAUAAGUUUGUUCCCUGACCACACUGGGGGACCCAGACUUCAACCCCACAGAGUC: 0.606
AGGAUUUAAGCUUAGGGGAUUUUAUUUUUAUAAAUACCAGAUUAUUGUUAGACUUAAUAAAUCACUGUUAAAUUUAAAGAUGACAGUUACCUUGGAAAGUUCACUAAUAC: 0.567
CCAGGCCUGGCCUCCUGAUGCCUUUUGCAUUGCAGCUGUGUGUUUGAAAACUGAGACUCACAUCCAAGGUUUCAAACCACAAAACCUUGGCAUGACUCUGCCAUGGUGUC: 0.403
AGUGGUAUGGCUGAACCCAUCGGAUAUUGUUAGCAAAGGAUGCAAAAACAUUAUUGGCAUCUGGAGAUUAUUGCAACGUUCUCCUAACCUGUCACAGAAAGCAGUUGCUU: 0.762
UGUAAUCUUUUAUUUAAGUAGUGGGCAUUUCAUAGCUUCACAAUGUUCCUUUUUUGUAUAUUACAACAUUUAUGUGAGGUAAUUAUUGCUCAACAGACAAUUAGAAAAAA: 0.455
AUCAACUUUUAAAAACAUUUGACUGUUUUUGUUACAUGCAUUGUAUUUCUGCUUUGUCUAUAAGAAGUGGUCAAGUCCAACUCUGUGACAACUCUUAACUUGCCUCCCUG: 0.267
AUUCCAUGAAAGAUGCAUUCAUUUAUUGAAGAUGACAAAAAAGGGAGUCAGAUAUAUUCUGGAAGCUAUUUUAAUUUUAGGCACACAAUCUCAUACAUUUUGAGACCCUU: 0.38
AAACGCACGACAGUUACCCAGAAGGUUUUAUUUCUCAGCAGAUUUGUAGAAUGAAGUAUAACGUCAGUGAAUGAGAGUCCAAGUUCUUAUCACACGAUAUUAGGUACUAA: 0.524
CCUUAGGUCGGGCUUCUGUUAUGUGCUUUCCAGAAGCAGUUUUUACAACUGUAGGUAAGGUUGUAAAUUCUGAGGAACAACAACACCACCACCACAACCAUGAGCCUUUC: 0.617
UAGGAGGUAUCCUUUGGAUGCUGAAGUGUUGGGAUUUUGAGGACAUGCGGAUGAUUUAUGAGAAUAGAGGGGCAGAGUUUGUGAAGUCUAGGGUUUUUUGUCCAGUGGGU: 9.48
UAGAAACGUAAGAUGACUUGUGUAGCACCUCUUUAUAAGCACACAGCUCAUCUUAAUAUUUUCCAUUUUUAUUAGAGGAAGUAGGACAGAGUUGUGUUUUUCUUUAUAAA: 1.09
UUUCUAAAGCUGAAUGUCAAACAGUGCCAAAUGCUGGGGCAGGGGGUGAAGAACCCUCUGUCCCACCCCUAGCCACCAGUGUCCUCCAAGUGCCCCCUCACCUCUCCAGG: 0.171

Block 2
Target: Interferon regulatory factor 7, full length, phosphomimetic (IRF7, Homo sapiens, UniProt Q92985, residues 1-503, S101K/S471D/S472D/S475D/S476D/S477D/S483D/S484D/S487D)
Technique: protein-binding microarray
Molecule type: double-stranded DNA, one strand shown
Medium: in vitro
Tested at: 250 nM
Notes: 60-bp whole probe
Added: salmon DNA 0.4 mg/ml
Relative to: random background probes
Direction: higher = stronger binding
Quantity: log fluorescence
All sequences stand within: GCCTAGCAC … GTCTTGATTCGCTTGACGCTGCTG
Construct (chain): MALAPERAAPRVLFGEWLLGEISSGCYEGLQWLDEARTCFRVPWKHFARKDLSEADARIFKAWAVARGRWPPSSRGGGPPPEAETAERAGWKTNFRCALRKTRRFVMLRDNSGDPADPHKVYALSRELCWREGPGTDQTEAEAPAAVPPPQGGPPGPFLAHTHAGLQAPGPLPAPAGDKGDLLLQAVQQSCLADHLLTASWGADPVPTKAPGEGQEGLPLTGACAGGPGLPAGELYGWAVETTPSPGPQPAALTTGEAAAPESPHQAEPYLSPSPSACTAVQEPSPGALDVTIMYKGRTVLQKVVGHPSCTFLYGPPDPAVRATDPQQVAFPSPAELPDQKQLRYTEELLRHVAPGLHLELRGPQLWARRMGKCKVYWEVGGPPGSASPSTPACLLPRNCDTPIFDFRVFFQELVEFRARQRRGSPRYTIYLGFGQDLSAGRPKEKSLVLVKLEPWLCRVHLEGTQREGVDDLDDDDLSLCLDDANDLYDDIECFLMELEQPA
TTAGATATCAGACTTGATTAGTGCTAG: -0.379 z-score
TCATGCTCATTTTTCAGACTGTGCTAG: 0.568 z-score
TCACATTTGGAAAATGAAACTGTGCTA: 1.91 z-score
AATGACTCTATGAAGTAGTTGTGCTAG: -0.251 z-score
TTAGGTATCCTTCTCCTTTGGTGCTAG: 0.224 z-score
TTTGGTTTCGGACTGGGTTAGTGCTAG: 5.61 z-score
GACGAACTGGGGTTTCAAGACGTGCTA: -0.518 z-score
GTAGGTTTCGACTTTCGGTTAGTGCTA: 10.9 z-score
CCCTGGCTCCCTATAAAAGGGTGCTAG: -0.512 z-score
TTAGGACTGGACTTTCAGTTAGTGCTA: -0.685 z-score
GACGGTATTGGACTGGGGACGTGCTAG: -0.343 z-score
TTAGGACTGGGACTGGCTTAGTGCTAG: -0.541 z-score
GACGATATCAGTCTCGAGCCGTGCTAG: -0.361 z-score
GACGAACTGAGACTGGATACGTGCTAG: -0.0015 z-score
TTAGATTCCAGTTTCGAGTAGTGCTAG: 6.82 z-score
TGGGTAATGCTTCTGTATTCGTGCTAG: -0.126 z-score
TCATTTCTGAATGCTCCCACTGTGCTA: 1.24 z-score
GACGGTATCGCTCTCGGGACGTGCTAG: -0.165 z-score
ATGTATATATGTGTATATATGTGCTAG: 0.409 z-score
TTAGGACTGTGGTTTCGGTTAGTGCTA: 7.57 z-score
TTAGGACTGGACTTTCGCTTAGTGCTA: -0.185 z-score
GACGATTCCAGTTTCGAGTCGTGCTAG: 8.74 z-score
GACTATATCAGTATCGAGACGTGCTAG: 0.393 z-score
TTAGATTTCAGTTCCGACTAGTGCTAG: 1.05 z-score
TTAGGTATCGTTCTCCTTTAGTGCTAG: 2.26 z-score

Block 3
Target: NFE2L1, bZIP domain (human)
Technique: DHFR protein complementation
Medium: yeast
Notes: single substitutions, most at no-binding floor
Relative to: wild-type JUN-FOS pair
Direction: higher = stronger binding
Quantity: binding fitness
Starting sequence: JUN, bZIP domain (human); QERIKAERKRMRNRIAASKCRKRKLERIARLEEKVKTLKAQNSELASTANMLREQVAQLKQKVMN; partner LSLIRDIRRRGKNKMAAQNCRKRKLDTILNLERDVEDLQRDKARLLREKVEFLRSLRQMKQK
L52G: -1.49 natural log
L31V: -1.44 natural log
N42P: -1.49 natural log
A40P: -1.55 natural log
I28V: -1.44 natural log
L45D: -1.52 natural log
K36A: -1.45 natural log
K39C: -1.55 natural log
N42S: -1.4 natural log
N42T: -1.51 natural log
K34T: -1.45 natural log
L45A: -1.57 natural log
I28K: -1.57 natural log
I28F: -1.43 natural log
R30M: -1.48 natural log
T48K: -1.37 natural log
A40E: -1.48 natural log
S43P: -1.46 natural log
N42D: -1.45 natural log
V56L: -1.5 natural log
E54A: -1.36 natural log
L45E: -1.6 natural log
E32D: -1.54 natural log
A46I: -1.11 natural log
K36H: -1.47 natural log

Block 4
Target: ABI1, truncated, D143A, DHFR fusion (Arabidopsis thaliana)
Technique: DHFR PCA, deep sequencing
Medium: yeast
Notes: methotrexate growth selection, single substitutions
Added: (+)-ABA 0 µM
Relative to: wild-type fitted maximum
Direction: higher = stronger binding
Quantity: relative binding score
Starting sequence: PYL1, truncated, DHFR fusion (Arabidopsis thaliana); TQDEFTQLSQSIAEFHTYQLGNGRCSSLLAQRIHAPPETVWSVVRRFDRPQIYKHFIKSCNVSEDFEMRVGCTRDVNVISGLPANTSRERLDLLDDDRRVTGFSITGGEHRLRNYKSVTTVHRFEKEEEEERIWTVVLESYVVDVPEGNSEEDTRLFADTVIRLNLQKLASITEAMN
Q31W: 1.31%
G21T: 31.7%
V70H: -2%
S87T: 38.4%
C60F: -0.918%
V136K: -8.11%
Q10D: 49.7%
T73K: 3.99%
D92Q: 12.7%
S80C: 32.6%
D75H: 20.5%
R123Y: -2.89%
G21F: -2.18%
K168M: 5.24%
I33F: -1.28%
Y141D: 4.74%

Block 5
Target: CCNA2, cyclin fold, Cln2 fusion (human)
Technique: yeast growth competition, sequencing
Medium: yeast
Notes: weak parent motif
Relative to: not given
Direction: higher = stronger binding
Quantity: normalised enrichment score
Starting sequence: AKAP12 docking peptide (human); GSPLKKLFTSTGL
F8L: 0.381
L4A: -0.103
P3A: 2.3
K6A: -0.0163
K5A: 0.0246
F8A: -0.132
K5R: 0.851
T11A: 1.05
K5A L7A: -0.0454
L13A: 1.3

Block 6
Target: Histone acetyltransferase KAT6A, winged helix 2, GST fusion (KAT6A, Homo sapiens, UniProt Q92794, residues 85-181)
Technique: protein binding microarray
Molecule type: double-stranded DNA, one strand shown
Medium: in vitro
Tested at: not given
Notes: 8-mer, flanks averaged, mean of 2 arrays, mostly near background
Relative to: not given
Direction: higher = stronger binding
Quantity: E-score
Residues (chain): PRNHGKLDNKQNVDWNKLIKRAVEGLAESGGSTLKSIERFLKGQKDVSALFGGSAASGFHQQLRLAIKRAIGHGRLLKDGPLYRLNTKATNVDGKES
ATATGCTG: -0.00255
CTACGACA: 0.0618
GCTATGTA: -0.184
AAAAAAAT: 0.0682
AGATCGAC: 0.00611
AAAGGATC: -0.127
AGAGCTTA: 0.0275
GTCGCGGA: 0.0709
GTATCGGA: -0.236
TCTCCTAA: -0.165
CAAATACG: -0.0354
ACAGATCG: -0.111
GAACGAGC: 0.069
CTTGGCGC: 0.137
CTTTACGA: -0.117
CTGCTAAC: 0.0583
ATGATGCG: 0.0766
CTGGCTTA: -0.0955
ATACGACC: -0.141
CGGGCGAG: 0.169
CTCATGGC: 0.112
